Experimental data from different studies.
Each line is one published result; not all experiments were run side by side.
EGFR: Epidermal growth factor receptor (EGFR, Homo sapiens, UniProt P00533)
EGFR with EGF: Epidermal growth factor receptor, with EGF (EGFR, Homo sapiens, UniProt P00533)
EGFR T790M: Epidermal growth factor receptor (EGFR, Homo sapiens, UniProt P00533, T790M)

Cc1ccnc(-c2cc(C(=O)NCCCCn3cc(CN(CC(N)=O)C(=O)CN(CCCCN)C(=O)CN(CCCCN)C(=O)CN(CC(C)C)C(=O)CN(CCCCN)C(=O)CN(Cc4ccc5c(c4)OCO5)C(=O)CN(C(=O)CN(CCCCN)C(=O)CN(CC(C)C)C(=O)CNCCCCN)C(C)c4ccccc4)nn3)ccn2)c1 (stereo not drawn)  autophosphorylation (EGFR; NCI-H441; irradiated 10 min, added: EGF): no effect
Cc1c2ccccc2n2c1c(-c1ccccc1)c(S(=O)(=O)c1ccccc1)c1ccccc12  inhibition (EGFR; enzyme activity, inhibitor, ADP detection; 1 µM): > 50%
CC(C)[C@H](NC(=O)[C@H](CCC(=O)O)NC(=O)[C@H](CCC(=O)O)NC(=O)[C@H](Cc1ccc(O)cc1)NC(=O)[C@H](CCC(=O)O)NC(=O)[C@H](CC(=O)O)NC(=O)[C@H](CC(=O)O)NC(=O)[C@H](CCC(=O)O)NC(=O)[C@@H](CCCNC(=N)N)NC(=O)[C@@H](CCCNC(=N)N)NC(=O)[C@@H](CCCNC(=N)N)NC(=O)[C@H](C)N(C)C(=O)[C@H](Cc1ccccc1)NC(=O)[C@@H](NC(=O)[C@H](Cc1ccccc1)NC(=O)[C@H](C)NC(=O)[C@H](CCCNC(=N)N)N(C)C(=O)[C@@H]1CCCN1C(=O)[C@H](CCCNC(=N)N)NC(=O)CNC(=O)c1ccc2c(c1)C1(OC2=O)c2ccc(O)cc2Oc2cc(O)ccc21)[C@@H](C)O)C(N)=O  Km (EGFR; enzyme activity, substrate): 82 µM
N=C(N)NCCC[C@@H]1NC(=O)[C@H](Cc2c[nH]c3ccccc23)NC(=O)[C@H](CCCNC(=N)N)NC(=O)[C@H](Cc2c[nH]c3ccccc23)NC(=O)[C@H](CCCNC(=N)N)NC(=O)[C@H](Cc2c[nH]c3ccccc23)NC(=O)[C@H](CCCNC(=N)N)NC(=O)[C@H](Cc2c[nH]c3ccccc23)NC(=O)[C@H](CCCNC(=N)N)NC(=O)[C@H](Cc2c[nH]c3ccccc23)NC(=O)[C@H](CCCNC(=N)N)NC(=O)[C@H](Cc2c[nH]c3ccccc23)NC(=O)[C@H](CCCNC(=N)N)NC(=O)[C@H](Cc2c[nH]c3ccccc23)NC(=O)[C@H](CCCNC(=N)N)NC(=O)[C@H](Cc2c[nH]c3ccccc23)NC(=O)[C@H](CCCNC(=N)N)NC(=O)[C@H](Cc2c[nH]c3ccccc23)NC1=O  remaining activity (EGFR; kinase activity, Reaction Biology radiometric; concentration not given, added: ATP 200 µM; relative to: DMSO): 72.6%
COc1cc(C(=O)NC2CCC(N3CCN(CC4CCC5(CCCC5)C4)CC3)CC2)c(F)cc1Nc1ncc2c(n1)N(C1CCCC1(F)F)CC(F)(F)C(=O)N2C (stereo not drawn)  inhibition (EGFR; cell-free assay, TR-FRET; 10 µM): 0.49%
COc1ccc2c(c1)c(C)c1c(-c3ccccc3)c(S(=O)(=O)c3ccc(C)cc3)c3ccccc3n12  inhibition (EGFR; enzyme activity, inhibitor, ADP detection; 1 µM): > 50%
CC(=O)N[C@@H](Cc1c[nH]c2ccccc12)C(=O)N[C@@H](Cc1c[nH]c2ccccc12)C(=O)N[C@@H](Cc1c[nH]c2ccccc12)C(=O)N[C@@H](Cc1c[nH]c2ccccc12)C(=O)N[C@@H](Cc1c[nH]c2ccccc12)C(=O)N[C@@H](Cc1c[nH]c2ccccc12)C(=O)NCCCC[C@@H]1NC(=O)[C@H](CCCNC(=N)N)NC(=O)[C@H](CCCNC(=N)N)NC(=O)[C@H](CCCNC(=N)N)NC(=O)[C@H](CCCNC(=N)N)NC(=O)[C@H](CCCNC(=N)N)NC(=O)[C@H](CCCNC(=N)N)NC1=O  remaining activity (EGFR; kinase activity, Reaction Biology radiometric; concentration not given, added: ATP 200 µM; relative to: DMSO): 127%
COc1cc(CC(=O)N2CC(=O)N[C@@H](Cc3ccccc3)CN(C(=O)Cc3ccc4ccccc4c3)CC(=O)N[C@@H](CCCCN)CN(C(=O)Cc3ccc4c(c3)OCO4)CC(=O)N[C@@H](CCCCN)CN(CC(N)=O)C(=O)CCSCc3ccc(cc3)C(=O)N[C@@H](CC(C)C)C2)cc(OC)c1  selectivity ratio (EGFR; binding, SPR; relative to: Kd EGFR over Kd HER2): 10 fold
CN1CCN(c2ccc(Nc3ncc(Cl)c(Nc4ccccc4P(C)(C)=O)n3)cc2Br)CC1  phosphorylation (EGFR (Homo sapiens, UniProt P00533, C797S/del746-750/T790M); western blot; nude mice, PC9-OR xenograft, tumour; dose not given): inhibited
Cc1c(C(=O)NNC(=S)Nc2ccc(Cl)cc2)nnn1Cc1nc2ccccc2[nH]1  relative activity (EGFR; inhibitor; concentration not given; relative to: gefitinib): ~60%
CC(C)C[C@@H]1NC(=O)C[C@H](c2ccccc2)NC(=O)[C@H](CC(N)=O)NC(=O)C[C@H](C)NC(=O)[C@H](Cc2ccc(O)cc2)NC(=O)CSC[C@@H](C(=O)NCC(N)=O)NC(=O)[C@H](CO)NC(=O)[C@@H]2CCCN2C(=O)C[C@H](c2ccccc2)NC(=O)[C@H](CC(C)C)NC(=O)[C@H](Cc2ccccc2)NC(=O)C[C@H](c2ccccc2)NC(=O)[C@H](CC(=O)O)NC(=O)[C@H](CC(N)=O)NC(=O)[C@H](Cc2ccccc2)NC1=O  protein interaction inhibition (EGFR with EGF; inhibitor, AlphaLISA; concentration not given): inactive
O=C(c1ccc2ccccc2c1)c1cn(-c2ccccc2)nc1C1=Nn2c(Cc3nnc4n3N=C(c3nn(-c5ccccc5)cc3C(=O)c3ccc5ccccc5c3)CS4)nnc2SC1  inhibition (EGFR; enzyme activity, inhibitor, ADP detection; 10 µM): 97.2%
CC(C)C[C@@H]1NC(=O)C[C@H](c2ccccc2)NC(=O)[C@H](CC(N)=O)NC(=O)C[C@H](C)NC(=O)[C@H](Cc2ccc(O)cc2)NC(=O)CSC[C@@H](C(=O)NCC(N)=O)NC(=O)[C@H](CO)NC(=O)[C@@H]2CCCN2C(=O)C[C@H](c2ccccc2)NC(=O)[C@H](CC(C)C)NC(=O)C[C@H](c2ccccc2)NC(=O)C[C@H](c2ccccc2)NC(=O)[C@H](CC(=O)O)NC(=O)[C@H](CC(N)=O)NC(=O)[C@H](Cc2ccccc2)NC1=O  protein interaction inhibition (EGFR with EGF; inhibitor, AlphaLISA; concentration not given): inactive
CC(C)[C@H](NC(=O)[C@H](CCC(=O)O)NC(=O)[C@H](CCC(=O)O)NC(=O)[C@H](Cc1ccc(O)cc1)NC(=O)[C@H](CCC(=O)O)NC(=O)[C@H](CC(=O)O)NC(=O)[C@H](CC(=O)O)NC(=O)[C@H](CCC(=O)O)NC(=O)CCCCCNC(=O)[C@H](C)N(C)C(=O)[C@H](Cc1ccccc1)NC(=O)[C@@H](NC(=O)[C@H](Cc1ccccc1)NC(=O)[C@H](C)NC(=O)[C@H](CCCNC(=N)N)N(C)C(=O)[C@@H]1CCCN1C(=O)[C@H](CCCNC(=N)N)NC(=O)CNC(=O)c1ccc2c(c1)C1(OC2=O)c2ccc(O)cc2Oc2cc(O)ccc21)[C@@H](C)O)C(N)=O  Km (EGFR; enzyme activity, substrate): 812 µM
Oc1ncnc2c1sc1sc3c(O)ncnc3c12  relative potency (EGFR T790M; kinase activity; relative to: gefitinib IC50 over compound IC50): 2.95
Cc1ccc(S(=O)(=O)c2c(-c3ccccc3)c3c(C)c4cc(F)ccc4n3c3ccccc23)cc1  inhibition (EGFR; enzyme activity, inhibitor, ADP detection; 1 µM): > 50%
Nc1ncnc2c1sc1sc3c(N)ncnc3c12  relative potency (EGFR T790M; kinase activity; relative to: gefitinib IC50 over compound IC50): 4.27
C=CC(=O)Nc1cc(Nc2nccc(-n3ccc4nc(OC)ccc43)n2)c(OC)cc1N(C)CCN(C)C  selectivity ratio (EGFR (Homo sapiens, UniProt P00533, L858R/T790M); KINOMEscan; relative to: Kd wild-type over Kd mutant): ~90

Some of these lines once more:
CC(C)C[C@@H]1NC(=O)C[C@H](c2ccccc2)NC(=O)[C@H](CC(N)=O)NC(=O)C[C@H](C)NC(=O)[C@H](Cc2ccc(O)cc2)NC(=O)CSC[C@@H](C(=O)NCC(N)=O)NC(=O)[C@H](CO)NC(=O)[C@@H]2CCCN2C(=O)C[C@H](c2ccccc2)NC(=O)[C@H](CC(C)C)NC(=O)C[C@H](c2ccccc2)NC(=O)C[C@H](c2ccccc2)NC(=O)[C@H](CC(=O)O)NC(=O)[C@H](CC(N)=O)NC(=O)[C@H](Cc2ccccc2)NC1=O  protein interaction inhibition (EGFR with EGF; inhibitor, AlphaLISA; concentration not given): inactive
